Results gathered from unrelated publications.
Lines come from different studies, so protocols differ. Changes are numbered by the printed parent chain. Numbers after ± are the reported error.
SUMO/GIN4: SUMO/GIN4 (Saccharomyces cerevisiae)
RIGI: RIGI 2-925 (Homo sapiens, UniProt O95786)
UniProt O95786, sequence (whole entry, looked up): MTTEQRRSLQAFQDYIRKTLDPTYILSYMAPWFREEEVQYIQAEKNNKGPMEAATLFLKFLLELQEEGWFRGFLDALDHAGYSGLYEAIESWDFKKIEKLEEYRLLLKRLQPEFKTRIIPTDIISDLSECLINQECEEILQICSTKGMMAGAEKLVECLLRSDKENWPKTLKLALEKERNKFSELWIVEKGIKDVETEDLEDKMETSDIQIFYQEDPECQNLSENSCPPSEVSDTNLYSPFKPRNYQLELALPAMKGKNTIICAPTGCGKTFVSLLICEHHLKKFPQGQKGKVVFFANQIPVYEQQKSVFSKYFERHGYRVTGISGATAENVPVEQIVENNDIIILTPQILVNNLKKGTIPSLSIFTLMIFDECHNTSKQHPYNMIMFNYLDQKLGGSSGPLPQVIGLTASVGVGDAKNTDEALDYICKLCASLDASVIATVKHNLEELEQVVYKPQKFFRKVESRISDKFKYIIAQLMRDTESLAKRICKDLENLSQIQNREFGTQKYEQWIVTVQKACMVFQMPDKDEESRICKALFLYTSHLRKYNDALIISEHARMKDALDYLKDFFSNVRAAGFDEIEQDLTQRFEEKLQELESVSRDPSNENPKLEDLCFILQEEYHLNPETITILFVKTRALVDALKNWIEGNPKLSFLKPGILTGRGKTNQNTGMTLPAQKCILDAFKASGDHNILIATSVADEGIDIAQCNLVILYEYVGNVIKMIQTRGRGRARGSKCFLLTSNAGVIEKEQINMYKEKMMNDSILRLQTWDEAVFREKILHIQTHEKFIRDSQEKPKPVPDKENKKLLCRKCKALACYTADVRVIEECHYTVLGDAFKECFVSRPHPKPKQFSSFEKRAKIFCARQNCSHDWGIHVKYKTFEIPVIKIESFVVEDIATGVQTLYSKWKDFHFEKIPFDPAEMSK
P1: METTL9 full-length, 1-318 (Homo sapiens); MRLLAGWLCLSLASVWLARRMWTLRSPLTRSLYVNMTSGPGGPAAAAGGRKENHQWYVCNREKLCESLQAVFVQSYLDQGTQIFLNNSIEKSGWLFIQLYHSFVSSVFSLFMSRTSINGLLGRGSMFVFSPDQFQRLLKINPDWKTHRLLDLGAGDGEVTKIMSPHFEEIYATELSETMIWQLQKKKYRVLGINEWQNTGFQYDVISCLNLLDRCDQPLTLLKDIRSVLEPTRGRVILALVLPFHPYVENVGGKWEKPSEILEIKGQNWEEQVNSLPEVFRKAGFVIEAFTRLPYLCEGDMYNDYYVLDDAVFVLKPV
P2: ELM1 (Saccharomyces cerevisiae); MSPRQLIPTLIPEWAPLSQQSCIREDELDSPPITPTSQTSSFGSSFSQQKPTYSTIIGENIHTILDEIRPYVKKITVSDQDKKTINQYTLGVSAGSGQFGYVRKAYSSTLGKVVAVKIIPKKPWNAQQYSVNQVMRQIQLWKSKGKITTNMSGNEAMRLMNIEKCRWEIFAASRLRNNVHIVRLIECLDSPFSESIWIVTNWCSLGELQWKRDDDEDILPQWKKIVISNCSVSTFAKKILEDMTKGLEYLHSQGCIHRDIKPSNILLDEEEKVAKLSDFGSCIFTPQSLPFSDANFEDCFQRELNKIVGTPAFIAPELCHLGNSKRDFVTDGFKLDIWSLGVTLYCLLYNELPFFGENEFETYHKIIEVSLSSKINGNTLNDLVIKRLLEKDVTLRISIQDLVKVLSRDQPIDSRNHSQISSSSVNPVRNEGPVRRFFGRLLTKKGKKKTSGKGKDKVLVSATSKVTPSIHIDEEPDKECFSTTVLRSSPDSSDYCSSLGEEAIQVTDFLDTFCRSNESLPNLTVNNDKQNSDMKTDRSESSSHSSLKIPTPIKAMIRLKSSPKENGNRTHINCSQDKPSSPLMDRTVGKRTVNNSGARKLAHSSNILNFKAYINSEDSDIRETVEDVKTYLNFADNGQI
P3: SFH4 (Saccharomyces cerevisiae); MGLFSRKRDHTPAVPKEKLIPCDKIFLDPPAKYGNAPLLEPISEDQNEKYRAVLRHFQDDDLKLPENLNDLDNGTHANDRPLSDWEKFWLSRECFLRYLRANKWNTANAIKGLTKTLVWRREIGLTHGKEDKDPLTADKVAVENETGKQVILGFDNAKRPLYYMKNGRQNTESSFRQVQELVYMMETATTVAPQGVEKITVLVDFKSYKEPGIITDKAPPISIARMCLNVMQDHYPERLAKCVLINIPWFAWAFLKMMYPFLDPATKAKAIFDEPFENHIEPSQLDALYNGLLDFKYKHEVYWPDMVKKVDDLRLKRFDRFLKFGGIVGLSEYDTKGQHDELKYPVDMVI
P4: RCC1 residues 1-6 peptide (Homo sapiens); SPKRIA; partner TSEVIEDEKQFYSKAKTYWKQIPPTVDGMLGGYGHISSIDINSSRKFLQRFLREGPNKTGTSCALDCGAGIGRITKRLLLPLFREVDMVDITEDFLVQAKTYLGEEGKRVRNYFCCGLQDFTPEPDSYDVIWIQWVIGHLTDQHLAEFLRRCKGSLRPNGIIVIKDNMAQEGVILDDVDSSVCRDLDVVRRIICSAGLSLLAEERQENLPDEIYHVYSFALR

Substance | tested on | test | test system | conditions | how to read | measurement | value
P1 D213N | SLC39A7 residues 66-74 | ITC | – | together with: SAH 2 mM | – | Kd | 28700 nM
P2 S519D | SUMO/GIN4 | GST pull-down | – | – | relative to: unchanged protein, higher = more binding | relative binding | 1.1
RNA 1 GCAUGCGACCUCUGUUUGA / RNA 2 UCAAACAGAGGUCGCAUGC (dsRNA; 5'-OH, duplex, 19 bp) | RIGI | MST | double-stranded RNA | together with: AMP-CP 0.4 mM; MgCl2.5 mM | – | Kd | 121 ± 50 nM
P3 F175L | PSD2 (Saccharomyces cerevisiae) | co-IP | – | read off a plot | relative to: unchanged protein, higher = more binding | relative binding | 0.045
P1 V241G | SLC39A7 residues 66-74 | ITC | – | together with: SAH 2 mM | – | Kd | 60900 nM
GGACGUACGUUUCGACGUACGUCC (structured RNA; 5'-OH, hairpin, 10 bp) | RIGI | MST | folded RNA | together with: ADP-AlFx | – | Kd | 3.9 ± 1.9 nM
MYO10 S1062R (Homo sapiens) | BTRC | co-IP | HEK293T | together with: MG132 | relative to: unchanged protein, higher = more binding | relative binding | 0.6
P2 S519A | SUMO/GIN4 | GST pull-down | – | – | relative to: unchanged protein, higher = more binding | relative binding | 1
P4 S1Y | NTMT1 residues 2-223 (Homo sapiens) | ITC | – | second site, bimodal curve | – | Kd | 100 nM
MYO10 L1063P (Homo sapiens) | BTRC | co-IP | HEK293T | together with: MG132 | relative to: unchanged protein, higher = more binding | relative binding | 0.6

For quick reference, copied from above:
Substance | tested on | test | test system | conditions | how to read | measurement | value
P2 S519D | SUMO/GIN4 | GST pull-down | – | – | relative to: unchanged protein, higher = more binding | relative binding | 1.1
